Measured values collected from several papers.
Numbered parts are unrelated; each lists some results of a single study. Positions count from the first letter of the parent shown.

Block 1 — technique: RNA Bind-n-Seq; form: RNA; medium: in vitro; tested at: 365 nM; relative to: no-protein control; direction: higher = stronger binding
Target: RNA binding protein fox-1 homolog 2, RRM domain, GST-SBP tag (RBFOX2, Homo sapiens, UniProt O43251-10, residues 100-194)
Setting: natural RNA segment, single round, ends assumed
Construct (chain): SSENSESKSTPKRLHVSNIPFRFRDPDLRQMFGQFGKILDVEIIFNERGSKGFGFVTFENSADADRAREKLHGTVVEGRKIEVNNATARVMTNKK
Sequence | RBNS enrichment (R)
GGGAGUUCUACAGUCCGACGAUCAAACAAUUCUGAAAACUGGUCCCUGGUGGUCAGCAGGAAAUGAUCUUUAUUUUUAUGCUAACAACCUUAUUUAAUUAAAAGUGCUGAAACCUGGCAAACUUCUCUAGCAUUGGAAUUCUCGGGUGCCAA | 0.423
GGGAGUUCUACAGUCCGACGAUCGGAAAUAUAAUGGCCUAAUUGUUUUCAAAAUGUAAGUUCCUGUGAAGAAUUUUGUUUAUAUUGGGUUGGGGACCUAUAGGUUUAAAAUAGAAUGUCAGUCAGCUGACUUAUGGAAUUCUCGGGUGCCAA | 0.908
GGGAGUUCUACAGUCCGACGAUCGAGGGCAUGAGGCUCCACUCAUUGUCUUGUGACUUCCAUCCCUGCUGAAUGGGGCUGCAAGGCCAAGGCUCCUUAGGGGAGAGGUCCUUACCUCUGAUCCACUUAGAGCAUGGAAUUCUCGGGUGCCAA | 1.02
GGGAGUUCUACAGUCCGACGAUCAGAACAUCUCUAUUCUGCAAGACCCCUCUGCCAUGCCAGGGCACGCCCAUUCCAGCUGGAGUCGUGGGGCUGGGCACAGGGGAAUUUUUCCAGAGCUGAGCCUGACGUCUUGGAAUUCUCGGGUGCCAA | 0.542
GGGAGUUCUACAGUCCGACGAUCUGCAGGUUCUGAAGAAUGCUCGGGCCAUGGCAGAUGCCCUGCUAGAGCGAGGCUACUCACUGGUAUCAGGUGGUACUGACAACCACCUGGUGCUGGUGGACCUGCGGCCCUGGAAUUCUCGGGUGCCAA | 0.266
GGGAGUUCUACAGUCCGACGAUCCCCUGCUUAGCAUGGUUGUGCUACCAUCCAGGAGAAUGUUGAUGGAACCAAAUUAAAUAUUUACUGUACGUUGUGGUGUUGUCUUCAUCUACAAGGAAUCUCAGUAGUUGUGGAAUUCUCGGGUGCCAA | 0.607
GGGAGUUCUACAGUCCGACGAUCACUGAGCAGUUAAAAAACACUGACAUAUUGCUUCCCUCAUGAAGUAAACGAUACAGGGAACUGGUUGAAGAGAUUGGAAUUUUAUUUAGUUGGCUUUGUUUUCCUUAAAGUGGAAUUCUCGGGUGCCAA | 0.411
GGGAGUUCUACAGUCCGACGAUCGGUGUAUCCUUUUCCUUUCAACACAGUGCAGAUAAGAGUUGAAUAUUGAUAUCAUACAUUUAGACUGCUGUUCUGAUUGCAUUUAUCUUUUUCCUACAUCAUUUAGAAUUUGGAAUUCUCGGGUGCCAA | 0.587

Block 2 — technique: DHFR PCA, deep sequencing; medium: yeast; added: (+)-ABA 4.8 µM; relative to: wild-type fitted maximum; direction: higher = stronger binding
Target: ABI1, truncated, D143A, DHFR fusion (Arabidopsis thaliana)
Setting: methotrexate growth selection, single substitutions
Starting sequence: PYL1, truncated, DHFR fusion (Arabidopsis thaliana); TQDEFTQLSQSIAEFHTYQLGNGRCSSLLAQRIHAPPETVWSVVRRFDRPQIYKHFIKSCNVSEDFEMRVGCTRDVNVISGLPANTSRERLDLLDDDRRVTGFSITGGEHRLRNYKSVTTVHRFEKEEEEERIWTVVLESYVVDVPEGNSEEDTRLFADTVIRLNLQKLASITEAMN; partner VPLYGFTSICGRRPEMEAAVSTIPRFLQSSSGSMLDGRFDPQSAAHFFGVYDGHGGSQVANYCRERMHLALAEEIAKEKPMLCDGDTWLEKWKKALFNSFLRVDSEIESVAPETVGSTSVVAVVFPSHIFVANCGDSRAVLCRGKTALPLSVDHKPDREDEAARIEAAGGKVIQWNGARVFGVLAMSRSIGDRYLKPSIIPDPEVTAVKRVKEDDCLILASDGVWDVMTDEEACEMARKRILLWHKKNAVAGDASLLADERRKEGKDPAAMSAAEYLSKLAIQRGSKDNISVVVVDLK
Change | relative binding score
Y115S | -0.405%
S9E | 78.8%
K168Y | 6.31%
I12D | -2.92%
N177E | 84.1%
T160D | -5.8%
L29H | 70.4%
D144H | 7.5%

Other studies, line by line
Molecule | tested on | assay | test system | setting | measurement | value
CC(C)n1cnc(-c2ccc(F)cc2)c1-c1ncc(C(=O)Nc2ccc(N3CCN(C)CC3)cc2)[nH]1 | – | phase 2a trial, measured: infection | idiopathic pulmonary fibrosis patients | 30 mg once daily, grade 4 | adverse event incidence | 0%
NUP98 (Homo sapiens, UniProt P52948) | NUP160 (Homo sapiens, UniProt Q12769) | cross-linking MS | cell fractions | added: DSSO | cross-linked residues | K1749 to K1096

For quick reference, copied from above (block 1):
Sequence | RBNS enrichment (R)
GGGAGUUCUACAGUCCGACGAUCAGAACAUCUCUAUUCUGCAAGACCCCUCUGCCAUGCCAGGGCACGCCCAUUCCAGCUGGAGUCGUGGGGCUGGGCACAGGGGAAUUUUUCCAGAGCUGAGCCUGACGUCUUGGAAUUCUCGGGUGCCAA | 0.542
